Measurements collected from several papers.
Compare with care: the assays were run in different laboratories. ± gives the spread as reported.
Method: steady-state kinetics
B1: LYS12 D271N (Saccharomyces cerevisiae, UniProt P40495); chain SLTIGLIPGDGIGKEVIPAGKQVLENLNSKHGLSFNFIDLYAGFQTFQETGKALPDETVKVLKEQCQGALFGAVQSPTTKVEGYSSPIVALRREMGLFANVRPVKSVEGEKGKPIDMVIVRENTEDLYIKIEKTYIDKATGTRVADATKRISEIATRRIATIALDIALKRLQTRGQATLTVTHKSNVLSQSDGLFREICKEVYESNKDKYGQIKYNEQIVDSMVYRLFREPQCFDVIVAPNLYGDILSNGAAALVGSLGVVPSANVGPEIVIGEPCHGSAPDIAGKGIANPIATIRSTALMLEFLGHNEAAQDIYKAVDANLREGSIKTPDLGGKASTQQVVDDVLSRL
B2: enzyme (Bacillus pumilus, UniProt A8FFI9); chain EARSIAWSVDEFFKNREGTFVIQEVKEKSPWVYNKKRAKERFAPQSTFKVANALIGLQTGAVRDEYDIKYWDGVKREIDNWNRDHTLGSGMRDSVVWYYQAMARDIGEERMNHWVKAIHYGNKDISGGIDQFWLSSTLRISPIEQVRFLKQLYEETLPFDLKNMRTVKRMMVQEEEKHATLYGKTGSGSDIGWYVGFIKHEHKTYILATNIKGTGIEAKDITYRILKKYHLMEASV
B3: BaiA2 (Clostridium scindens, UniProt P19337); chain MNLVQDKVTIITGGTRGIGFAAAKIFIDNGAKVSIFGETQEEVDTALAQLKELYPEEEVLGFAPDLTSRDAVMAAVGQVAQKYGRLDVMINNAGITSNNVFSRVSEEEFKHIMDINVTGVFNGAWCAYQCMKDAKKGVIINTASVTGIFGSLSGVGYPASKASVIGLTHGLGREIIRKNIRVVGVAPGVVNTDMTNGNPPEIMEGYLKALPMKRMLEPEEIANVYLFLASDLASGITATTVSVDGAYRP
B4: MauG P127V (Paracoccus denitrificans, UniProt Q51658); chain EQARPADDALAALGAQLFVDPALSRNATQSCATCHDPARAFTDPREGKAGLAVSVGDDGQSHGDRNTPTLGYAALVPAFHRDANGKYKGGQFWDGRADDLKQQAGQVMLNPVEMAMPDRAAVAARLRDDPAYRTGFEALFGKGVLDDPERAFDAAAEALAAYQATGEFSPFDSKYDRVMRGEEKFTPLEEFGYTVFITWNCRLCHMQRKQGVAERETFTNFEYHNIGLPVNETAREASGLGADHVDHGLLARPGIEDPAQSGRFKVPSLRNVAVTGPYMHNGVFTDLRTAILFYNKYTSRRPEAKINPETGAPWGEPEVARNLSLAELQSGLMLDDGRVDALVAFLETLTDRRYEPLLEESRAAQKD
B5: tsaM1 F253S/H255G/M230N/R216A/S234V/S257H/T232I/Y220I (Comamonas testosteroni, UniProt P94679); chain MFIRNCWYVAAWDTEIPAEGLFHRTLLNEPVLLYRDTQGRVVALENRCCHRSAPLHIGRQEGDCVRCLYHGLKFNPSGACVEIPGQEQIPPKTCIKSYPVVERNRLVWIWMGDPARANPDDIVDYFWHDSPEWRMKPGYIHYQANYKLIVDNLLDFTHLAWVHPTTLGTDSAASLKPVIERDTTGTGKLTITRWYLNDDMSNLHKGVAKFEGKADAWQIIQWSPPALLRNDIGVAPTGTGAPEGRRVPEAVQSRGTHIQTPETETTSHYWFCQARNFDLDDEALTEKIYQGVVVAFEEDRTMIEAHEKILSQVPDRPMVPIAADAGLNQGRWLLDRLLKAENGGTAP
B6: BshA S17A (Bacillus subtilis, UniProt P42982); chain MRKLKIGITCYPSVGGAGIIATELGKQLAEKGHEIHFITSSIPFRLNTYHPNIHFHEVEVNQYAVFKYPPYDLTLASKIAEVAERENLDIIHAHYALPHAVCAYLAKQMLKRNIGIVTTLHGTDITVLGYDPSLKDLIRFAIESSDRVTAVSSALAAETYDLIKPEKKIETIYNFIDERVYLKKNTAAIKEKHGILPDEKVVIHVSNFRKVKRVQDVIRVFRNIAGKTKAKLLLVGDGPEKSTACELIRKYGLEDQVLMLGNQDRVEDLYSISDLKLLLSEKESFGLVLLEAMACGVPCIGTNIGGIPEVIKNNVSGFLVDVGDVTAATARAMSILEDEQLSNRFTKAAIEMLENEFSSKKIVSQYEQIYADLAEPE
B7: UCK2 (Homo sapiens, UniProt Q9BZX2); chain MAGDSEQTLQNHQQPNGGEPFLIGVSGGTASGKSSVCAKIVQLLGQNEVDYRQKQVVILSQDSFYRVLTSEQKAKALKGQFNFDHPDAFDNELILKTLKEITEGKTVQIPVYDFVSHSRKEETVTVYPADVVLFEGILAFYSQEVRDLFQMKLFVDTDADTRLSRRVLRDISERGRDLEQILSQYITFVKPAFEEFCLPTKKYADVIIPRGADNLVAINLIVQHIQDILNGGPSKRQTNGCLNGYTPSRKRQASESSSRPH
B8: CODH (Afipia carboxidovorans, UniProt P19920); chain MIPGSFDYHRPKSIADAVALLTKLGEDARPLAGGHSLIPIMKTRLATPEHLVDLRDIGDLVGIREEGTDVVIGAMTTQHALIGSDFLAAKLPIIRETSLLIADPQIRYMGTIGGNAANGDPGNDMPALMQCLGAAYELTGPEGARIVAARDYYQGAYFTAIEPGELLTAIRIPVPPTGHGYAYEKLKRKIGDYATAAAAVVLTMSGGKCVTASIGLTNVANTPLWAEEAGKVLVGTALDKPALDKAVALAEAITAPASDGRGPAEYRTKMAGVMLRRAVERAKARAKN
B9: Mj-MAT W387F (Methanocaldococcus jannaschii, UniProt Q58605); chain MRNIIVKKLDVEPIEERPTEIVERKGLGHPDSICDGIAESVSRALCKMYMEKFGTILHHNTDQVELVGGHAYPKFGGGVMVSPIYILLSGRATMEILDKEKNEVIKLPVGTTAVKAAKEYLKKVLRNVDVDKDVIIDCRIGQGSMDLVDVFERQKNEVPLANDTSFGVGYAPLSTTERLVLETERFLNSDELKNEIPAVGEDIKVMGLREGKKITLTIAMAVVDRYVKNIEEYKEVIEKVRKKVEDLAKKIADGYEVEIHINTADDYERESVYLTVTGTSAEMGDDGSVGRGNRVNGLITPFRPMSMEAASGKNPVNHVGKIYNILANLIANDIAKLEGVKECYVRILSQIGKPINEPKALDIEIITEDSYDIKDIEPKAKEIANKFLDNIMEVQKMIVEGKVTTF
B10: carbamoyl phosphate synthetase large subunit A23F (Escherichia coli, UniProt P00968); chain PKRTDIKSILILGAGPIVIGQFCEFDYSGAQACKALREEGYRVILVNSNPATIMTDPEMADATYIEPIHWEVVRKIIEKERPDAVLPTMGGQTALNCALELERQGVLEEFGVTMIGATADAIDKAEDRRRFDVAMKKIGLETARSGIAHTMEEALAVAADVGFPCIIRPSFTMGGSGGGIAYNREEFEEICARGLDLSPTKELLIDESLIGWKEYEMEVVRDKNDNCIIVCSIENFDAMGIHTGDSITVAPAQTLTDKEYQIMRNASMAVLREIGVETGGSNVQFAVNPKNGRLIVIEMNPRVSRSSALASKATGFPIAKVAAKLAVGYTLDELMNDITGGRTPASFEPSIDYVVTKIPRFNFEKFAGANDRLTTQMKSVGEVMAIGRTQQESLQKALRGLEVGATGFDPKVSLDDPEALTKIRRELKDAGADRIWYIADAFRAGLSVDGVFNLTNIDRWFLVQIEELVRLEEKVAEVGITGLNADFLRQLKRKGFADARLAKLAGVREAEIRKLRDQYDLHPVYKRVDTCAAEFATDTAYMYSTYEEECEANPSTDREKIMVLGGGPNRIGQGIEFDYCCVHASLALREDGYETIMVNCNPETVSTDYDTSDRLYFEPVTLEDVLEIVRIEKPKGVIVQYGGQTPLKLARALEAAGVPVIGTSPDAIDRAEDRERFQHAVERLKLKQPANATVTAIEMAVEKAKEIGYPLVVRPSYVLGGRAMEIVYDEADLRRYFQTAVSVSNDAPVLLDHFLDDAVEVDVDAICDGEMVLIGGIMEHIEQAGVHSGDSACSLPAYTLSQEIQDVMRQQVQKLAFELQVRGLMNVQFAVKNNEVYLIEVNPRAARTVPFVSKATGVPLAKVAARVMAGKSLAEQGVTKEVIPPYYSVKEVVLPFNKFPGVDPLLGPEMRSTGEVMGVGRTFAEAFAKAQLGSNSTMKKHGRALLSVREGDKERVVDLAAKLLKQGFELDATHGTAIVLGEAGINPRLVNKVHEGRPHIQDRIKNGEYTYIINTTSGRRAIEDSRVIRRSALQYKVHYDTTLNGGFATAMALNADATEKVISVQEMHAQIK
B11: enzyme D235A (Thermococcus kodakarensis, UniProt Q5JID5); chain MLYVEILGNLPEMARDEVKAMLELGGGEIIGQDYLFLKVDAGEKAFPFLDRLGLAHEYGLLLVEADSVEELLQKAGEVEWPIKGAFKVDTETMANCRHDVLDLPRKLGAVIHAQGFRVNLSKPDTVVRVYCGERLYAGIRLRYFDPKDFEKRKAHHRPFFRPISLHPRVSRALVNLTKATREILDPFMGAGGILIEAGLLGLRVYGVDIRPEMVEGAETNLKHYGVRDYTLKLGAATRLEDLFPDKKFEAVATDPPYGTAATLAGRKRDELYRKALRSIYNVLEDGGRLAIAFPTDFNGKAEAEAVGFRTLGRYYQRVHKSLERYFYVFEK
B12: Mgst1 unactivated (Rattus norvegicus, UniProt P08011); chain ADLKQLMDNEVLMAFTSYATIILAKMMFLSSATAFQRLTNKVFANPEDCAGFGKGENAKKFLRTDEKVERVRRAHLNDLENIVPFLGIGLLYSLSGPDLSTALIHFRIFVGARIYHTIAYLTPLPQPNRGLAFFVGYGVTLSMAYRLLRSRLYL
Sequence of UniProt Q9NZ08 (whole entry, looked up): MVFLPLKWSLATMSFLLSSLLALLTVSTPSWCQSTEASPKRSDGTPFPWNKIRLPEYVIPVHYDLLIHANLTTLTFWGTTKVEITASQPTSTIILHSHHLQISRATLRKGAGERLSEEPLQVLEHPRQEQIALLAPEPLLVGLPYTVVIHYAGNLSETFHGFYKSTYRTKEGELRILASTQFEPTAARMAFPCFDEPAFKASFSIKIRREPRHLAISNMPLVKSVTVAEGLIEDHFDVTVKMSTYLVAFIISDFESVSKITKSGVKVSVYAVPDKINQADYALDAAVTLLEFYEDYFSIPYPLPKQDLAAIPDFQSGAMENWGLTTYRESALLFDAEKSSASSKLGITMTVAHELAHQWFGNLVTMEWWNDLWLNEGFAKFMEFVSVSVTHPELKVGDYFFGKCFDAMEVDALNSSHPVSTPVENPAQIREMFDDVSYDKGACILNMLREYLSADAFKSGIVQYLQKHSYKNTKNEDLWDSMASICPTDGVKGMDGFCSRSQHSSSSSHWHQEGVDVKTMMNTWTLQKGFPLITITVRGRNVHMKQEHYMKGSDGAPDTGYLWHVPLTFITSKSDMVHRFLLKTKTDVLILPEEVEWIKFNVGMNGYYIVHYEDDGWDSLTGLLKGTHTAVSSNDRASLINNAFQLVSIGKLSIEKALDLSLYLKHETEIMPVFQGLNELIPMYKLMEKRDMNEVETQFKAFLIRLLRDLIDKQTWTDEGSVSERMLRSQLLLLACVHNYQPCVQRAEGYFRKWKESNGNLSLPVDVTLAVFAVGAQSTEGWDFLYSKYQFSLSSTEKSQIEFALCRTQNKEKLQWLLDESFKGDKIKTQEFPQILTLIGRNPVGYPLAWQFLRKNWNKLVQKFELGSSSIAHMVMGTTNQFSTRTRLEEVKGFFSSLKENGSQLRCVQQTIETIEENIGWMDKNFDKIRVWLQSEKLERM
Sequence of UniProt Q8KN33 (whole entry, looked up): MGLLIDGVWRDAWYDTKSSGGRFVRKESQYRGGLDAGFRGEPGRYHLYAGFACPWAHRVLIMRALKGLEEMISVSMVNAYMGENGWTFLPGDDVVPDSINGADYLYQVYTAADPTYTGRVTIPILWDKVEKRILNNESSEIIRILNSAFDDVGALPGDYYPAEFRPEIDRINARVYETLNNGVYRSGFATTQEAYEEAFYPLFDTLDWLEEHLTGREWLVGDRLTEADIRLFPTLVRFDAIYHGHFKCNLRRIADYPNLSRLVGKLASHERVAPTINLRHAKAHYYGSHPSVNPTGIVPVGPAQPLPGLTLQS
Sequence of UniProt G1UII1 (whole entry, looked up): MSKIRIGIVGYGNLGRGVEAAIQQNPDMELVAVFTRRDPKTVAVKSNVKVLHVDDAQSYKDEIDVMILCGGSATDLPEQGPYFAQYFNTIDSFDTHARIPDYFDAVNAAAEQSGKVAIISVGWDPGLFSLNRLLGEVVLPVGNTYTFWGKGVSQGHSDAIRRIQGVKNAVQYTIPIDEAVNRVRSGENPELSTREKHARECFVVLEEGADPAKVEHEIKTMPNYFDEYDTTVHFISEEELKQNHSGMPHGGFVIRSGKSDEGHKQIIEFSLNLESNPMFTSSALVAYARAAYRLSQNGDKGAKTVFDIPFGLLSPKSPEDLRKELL
Sequence of UniProt Q6PHW0 (whole entry, looked up): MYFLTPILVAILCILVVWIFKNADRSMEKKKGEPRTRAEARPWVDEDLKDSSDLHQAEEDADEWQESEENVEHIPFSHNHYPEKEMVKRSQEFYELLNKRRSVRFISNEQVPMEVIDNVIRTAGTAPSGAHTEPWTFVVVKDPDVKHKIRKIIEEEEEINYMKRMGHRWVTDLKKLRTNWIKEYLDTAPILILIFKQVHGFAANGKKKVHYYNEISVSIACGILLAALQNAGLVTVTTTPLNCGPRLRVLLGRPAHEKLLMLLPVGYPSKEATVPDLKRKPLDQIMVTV

ddh (Ureibacillus thermosphaericus, UniProt G1UII1) — kcat (O=C(O)C(=O)Cc1ccccc1; pH 9, 30 °C, reductive amination, added: NH4Cl 200 mM, NADPH 0.5 mM): 0.18 ± 0.02 s⁻¹
B1 (LYS12 D271N) — kcat (NC(=O)c1ccc[n+]([C@@H]2O[C@H](COP(=O)([O-])OP(=O)(O)OC[C@H]3O[C@@H](n4cnc5c(N)ncnc54)[C@H](O)[C@@H]3O)[C@@H](O)[C@H]2O)c1; pH 7.5, 25 °C, potassium acetate 100 mM, added: Mg-cosubstrate varied; Mg2+ 10 mM): 0.026 ± 0.002 s⁻¹
B2 (enzyme) — kcat (CCN1CCN(C(=O)N[C@@H](C(=O)N[C@@H]2C(=O)N3[C@@H]2SC(C)(C)[C@@H]3C(=O)O)c2ccccc2)C(=O)C1=O; pH 7): 60 ± 2 s⁻¹
ERAP1 (Homo sapiens, UniProt Q9NZ08) — kcat (CC(C)C[C@H](N)C(=O)N[C@@H](CO)C(=O)N[C@@H](CCCNC(=N)N)C(=O)N[C@@H](Cc1c[nH]cn1)C(=O)N[C@@H](Cc1c[nH]cn1)C(=O)N[C@@H](C)C(=O)N[C@@H](Cc1ccccc1)C(=O)N[C@@H](CO)C(=O)N[C@@H](Cc1ccccc1)C(=O)N[C@@H](CCCNC(=N)N)C(=O)O; 25 °C): 0.55 ± 0.035 s⁻¹
B3 (BaiA2) — kcat (NC(=O)c1ccc[n+]([C@@H]2O[C@H](COP(=O)(O)OP(=O)(O)OC[C@H]3O[C@@H](n4cnc5c(N)ncnc54)[C@H](OP(=O)(O)O)[C@@H]3O)[C@@H](O)[C@H]2O)c1; pH 8.7, 37 °C, cofactor varied, added: glycocholic acid 1.4 mM): 0.025 s⁻¹
IYD (Homo sapiens, UniProt Q6PHW0) — kcat (N#Cc1cc(C[C@H](N)C(=O)O)cc(I)c1O; pH 7.4, 25 °C, added: sodium dithionite 0.5%): 0.02 ± 0.003 s⁻¹
B4 (MauG P127V) — kcat (O=C1O[C@H]([C@@H](O)CO)C(O)=C1O; pH 7.5, 25 °C, added: H2O2 100 µM): 1.12 ± 0.09 s⁻¹
B5 — kcat (COc1cc(C(=O)O)ccc1O; apparent, added: NADH 1 mM): 0.0617 ± 0.00333 s⁻¹
B6 (BshA S17A) — kcat (CC(=O)N[C@H]1[C@@H](OP(=O)(O)OP(=O)(O)OC[C@H]2O[C@@H](n3ccc(=O)[nH]c3=O)[C@H](O)[C@@H]2O)O[C@H](CO)[C@@H](O)[C@@H]1O; pH 7.5, 21 °C, added: malate 0–25 mM): 2.5 ± 0.1 s⁻¹
B7 (UCK2) — kcat (Nc1ccn([C@@H]2O[C@H](CO)[C@@H](O)[C@H]2O)c(=O)n1; pH 7.2, 25 °C, KCl 100 mM, added: ATP 100–200 µM): 4.3 ± 0.2 s⁻¹
B8 (CODH) — kcat (O=C1C=CC(=O)C=C1; pH 7.2, 25 °C, anaerobic, added: CO saturating): 104 s⁻¹
B9 (Mj-MAT W387F) — kcat (CSCC[C@H](N)C(=O)O; 55 °C, added: ATP 2.5 mM, methionine 0.05-1 mM): 1.85 ± 0.08 s⁻¹
B10 — kcat (Nc1ncnc2c1ncn2[C@@H]1O[C@H](COP(=O)(O)OP(=O)(O)OP(=O)(O)O)[C@@H](O)[C@H]1O; pH 7.6, KCl 100 mM, added: glutamine 10 mM, ornithine 10 mM): 1.3 ± 0.07 s⁻¹
B11 (enzyme D235A) — kcat (C[S+](CC[C@H](N)C(=O)O)C[C@H]1O[C@@H](n2cnc3c(N)ncnc32)[C@H](O)[C@@H]1O; pH 7.5, 50 °C, apparent): 0.00117 ± 0.0005 s⁻¹
pcpF (Sphingobium chlorophenolicum, UniProt Q8KN33) — kcat (OCCS; pH 6.5, added: GS-TriCH, ascorbic acid 2 mM): 1.09 ± 0.06 s⁻¹
B12 (Mgst1 unactivated) — kcat (NC(=O)c1ccc(Cl)c([N+](=O)[O-])c1; pH 6.5, 5 °C, potassium phosphate 0.1 M, unactivated enzyme, added: GSH 5 mM): 0.0099 ± 0.0005 s⁻¹

A few entries again:
B5 — kcat (COc1cc(C(=O)O)ccc1O; apparent, added: NADH 1 mM): 0.0617 ± 0.00333 s⁻¹
B6 (BshA S17A) — kcat (CC(=O)N[C@H]1[C@@H](OP(=O)(O)OP(=O)(O)OC[C@H]2O[C@@H](n3ccc(=O)[nH]c3=O)[C@H](O)[C@@H]2O)O[C@H](CO)[C@@H](O)[C@@H]1O; pH 7.5, 21 °C, added: malate 0–25 mM): 2.5 ± 0.1 s⁻¹
